Results from different studies.
Compare with care: the assays were run in different laboratories. Numbers after ± are the reported error.

CCCCCCCC(=O)NCCCC[C@H](NC(=O)CCCCCCC)C(=O)N[C@@H](CCCCNC(=O)CCCCCCC)C(=O)NCC(=O)NCC(=O)NCC(=O)N[C@@H](CS)C(=O)N[C@@H](CCCNC(=N)N)C(=O)N[C@@H](CCCCN)C(=O)N1CCC[C@H]1C(=O)N[C@@H](CS)C(=O)N[C@@H](CCCNC(=N)N)C(=O)N[C@@H](CCCCN)C(=O)N1CCC[C@H]1C(N)=O — MIC (Candida albicans; broth microdilution; 14936, RPMI-1640; 48 h, 30 °C): 4 µM
CCCCCC[N+](C)(C)CCCCCCCCOc1cc(OCCCCCCCC[N+](C)(C)CCCCCC)cc(OCCCCCCCC[N+](C)(C)CCCCCC)c1.[Br-].[Br-].[Br-] — MIC (eight bacterial strains): ≤ 2 µM
CCCCCCCC(=O)NCCCC[C@H](NC(=O)CCCCCCC)C(=O)N[C@@H](CCCCNC(=O)CCCCCCC)C(=O)NCC(=O)NCC(=O)NCC(=O)N[C@@H](CS)C(=O)N[C@@H](CCCNC(=N)N)C(=O)N[C@@H](CCCCN)C(=O)N1CCC[C@H]1C(N)=O — MIC (Candida albicans; broth microdilution; fluconazole-resistant 56214, RPMI-1640; 48 h, 30 °C): > 128 µM
CN[C@H](CC(C)C)C(=O)N[C@H]1C(=O)N[C@@H](CC(N)=O)C(=O)N[C@H]2C(=O)N[C@H]3C(=O)N[C@H](C(=O)N[C@H](C(=O)O)c4cc(O)cc(O)c4-c4cc3ccc4O)[C@H](O)c3ccc(c(Cl)c3)Oc3cc2cc(c3O[C@@H]2O[C@H](CO)[C@@H](O)[C@H](O)[C@H]2O[C@H]2C[C@](C)(NCc3ccc(OCc4cn(CCCCC(=O)N[C@H](C(=O)N[C@@H](CCN)C(=O)N[C@H]5CCNC(=O)[C@H]([C@@H](C)O)NC(=O)[C@H](CCN)NC(=O)[C@H](CCN)NC(=O)[C@H](CC(C)C)NC(=O)[C@@H](CC(C)C)NC(=O)[C@H](CCN)NC5=O)[C@@H](C)O)nn4)c(OC)c3)[C@H](O)[C@H](C)O2)Oc2ccc(cc2Cl)[C@H]1O — MIC (Staphylococcus simulans; broth microdilution; 22, cation-adjusted Mueller-Hinton broth): 0.006 µM
CC[C@H](C)[C@H](N)C(=O)N[C@H](C)C(=O)N[C@@H](CC(C)C)C(=O)N[C@H](CCC(=O)O)C(=O)N[C@H](C(=O)N[C@H]1CCCCNC(=O)[C@H](CC(N)=O)NC(=O)[C@@H](CC(=O)O)NC(=O)[C@H](Cc2c[nH]cn2)NC(=O)[C@@H](Cc2ccccc2)NC(=O)[C@H]([C@@H](C)CC)NC(=O)[C@@H](CCCN)NC1=O)[C@@H](C)CC — MIC (Staphylococcus simulans; 22; 18 h, 37 °C, 0.3 mM ZnSO4 LB): > 64 µg/mL
CCCCCC(=O)NCCCC[C@H](NC(=O)CCCCC)C(=O)N[C@@H](CCCCNC(=O)CCCCC)C(=O)NCC(=O)NCC(=O)NCC(=O)N[C@@H](CS)C(=O)N[C@@H](CCCNC(=N)N)C(=O)N[C@@H](CCCCN)C(=O)N1CCC[C@H]1C(=O)N[C@@H](CS)C(=O)N[C@@H](CCCNC(=N)N)C(=O)N[C@@H](CCCCN)C(=O)N1CCC[C@H]1C(N)=O — MIC (Candida albicans; broth microdilution; SP 3903, RPMI-1640; 48 h, 30 °C): 32 µM
CC[C@H](C)[C@H](NC(=O)[C@H](CCCCN)NC(=O)[C@H](CCCCN)NC(=O)[C@H](Cc1ccccc1)NC(=O)[C@H](Cc1ccccc1)NC(=O)[C@H](CCCCN)NC(=O)[C@H](CCCCN)NC(=O)[C@H](Cc1ccccc1)NC(=O)[C@H](CCCNC(=N)N)NC(=O)[C@@H](N)CCCCN)C(=O)N[C@@H](CCCCN)C(=O)N[C@@H](CCCCN)C(=O)N[C@@H](CO)C(=O)N[C@H](C(=O)N[C@@H](CCCCN)C(=O)N[C@@H](CCCCN)C(=O)N[C@@H](CCCNC(=N)N)C(=O)N[C@H](C(=O)N[C@@H](CCCCN)C(=O)N[C@@H](CCCCN)C(=O)N[C@@H](CC(C)C)C(=O)N[C@@H](Cc1ccccc1)C(=O)N[C@@H](CCCCN)C(=O)N[C@@H](CCCCN)C(=O)N1CCC[C@H]1C(=O)N[C@@H](CCCNC(=N)N)C(=O)N[C@H](C(=O)N[C@H](C(=O)N1CCC[C@H]1C(=O)N[C@H](C(=O)N[C@@H](CO)C(=O)N[C@H](C(=O)N1CCC[C@H]1C(=O)N[C@@H](Cc1ccccc1)C(=O)O)[C@@H](C)CC)[C@@H](C)CC)[C@@H](C)CC)C(C)C)C(C)C)C(C)C — MIC (Escherichia coli; broth microdilution; ATCC 25922; 20 h): 4 µg/mL
C[N+]1=C2C(c3ccc(Cl)cc3)=[N+]([O-])c3ccccc3N2CCC1 — MIC (Fusobacterium nucleatum): 4 to 16 µg/mL
CCCCCCCC(=O)NCCCC[C@H](NC(=O)CCCCCCC)C(=O)N[C@@H](CCCCNC(=O)CCCCCCC)C(=O)NCC(=O)NCC(=O)NCC(=O)N[C@@H](CS)C(=O)N[C@@H](CCCNC(=N)N)C(=O)N[C@@H](CCCCN)C(=O)N1CCC[C@H]1C(=O)N[C@@H](CS)C(=O)N[C@@H](CCCNC(=N)N)C(=O)N[C@@H](CCCCN)C(=O)N1CCC[C@H]1C(=O)N[C@@H](CS)C(=O)N[C@@H](CCCNC(=N)N)C(=O)N[C@@H](CCCCN)C(=O)N1CCC[C@H]1C(N)=O — MIC (Candida albicans; broth microdilution; 58288, RPMI-1640; 48 h, 30 °C): 8 µM
CC[C@H](C)[C@H](N)C(=O)N[C@@H](CCCNC(=N)N)C(=O)N[C@H](C(=O)N[C@@H](Cc1c[nH]c2ccccc12)C(=O)N[C@@H](CCCCN)C(=O)N[C@@H](CCCCN)C(=O)N[C@H](C(=O)N[C@H](C(=O)N[C@@H](CCCNC(=N)N)C(=O)N[C@@H](CCCCN)C(=O)N[C@@H](CCSC)C(=O)N[C@@H](CCCCN)C(=O)N[C@@H](C)C(=O)N[C@H](C(=O)N[C@@H](Cc1ccc(O)cc1)C(=O)N[C@@H](Cc1c[nH]cn1)C(N)=O)[C@@H](C)CC)C(C)C)[C@@H](C)CC)C(C)C — MIC (Listeria monocytogenes; broth dilution; KCTC 13064): 100 µM
CC(C)CCCCCCCCC/C=C/C(=O)N[C@@H](CC(N)=O)C(=O)N[C@H]1CNC(=O)[C@@H]2CCCN2C(=O)[C@H](C(C)C)NC(=O)[C@@H](CN)NC(=O)CNC(=O)[C@H](CC(=O)O)NC(=O)CNC(=O)[C@H](CC(=O)O)NC(=O)[C@H](CC(=O)O)NC(=O)[C@H]2CCCCN2C1=O — MIC (Staphylococcus simulans; broth microdilution; 22, Mueller-Hinton broth, Mg2+ 10 mg/L; 16 h, 30 °C, with: Ca2+ 5 mM): 4 µg/mL
CC(C)C[C@H](NC(=O)[C@H](CC(C)C)NC(=O)[C@H](CCCCN)NC(=O)CNC(=O)[C@H](CC(C)C)NC(=O)CNC(=O)[C@H](CO)NC(=O)[C@H](CC(C)C)NC(=O)[C@H](CC(C)C)NC(=O)[C@H](CO)NC(=O)[C@H](CCCCN)NC(=O)[C@H](CC(C)C)NC(=O)[C@H](CCCCN)NC(=O)[C@H](CCCCN)NC(=O)[C@H](CC(C)C)NC(=O)[C@H](CC(C)C)NC(=O)[C@H](CC(C)C)NC(=O)CNC(=O)[C@H](CO)NC(=O)[C@H](Cc1c[nH]c2ccccc12)NC(=O)[C@@H](N)CCCCN)C(=O)O — MIC (Candida glabrata; broth microdilution; ATCC 2001; 44 h, 37 °C): > 100 µM
C#CCOc1ccc(CN[C@@]2(C)C[C@H](O[C@H]3[C@H](Oc4c5cc6cc4Oc4ccc(cc4Cl)[C@@H](O)[C@@H](NC(=O)[C@@H](CC(C)C)NC)C(=O)N[C@@H](CC(N)=O)C(=O)N[C@H]6C(=O)N[C@H]4C(=O)N[C@H](C(=O)N[C@H](C(=O)N[C@@H](CCCNC(=N)N)C(N)=O)c6cc(O)cc(O)c6-c6cc4ccc6O)[C@H](O)c4ccc(c(Cl)c4)O5)O[C@H](CO)[C@@H](O)[C@@H]3O)O[C@@H](C)[C@H]2O)cc1OC — MIC (Staphylococcus simulans; broth microdilution; 22, cation-adjusted Mueller-Hinton broth): 0.07 µM
CCCCCCCCCC(=O)NCCCC[C@H](NC(=O)CCCCCCCCC)C(=O)N[C@@H](CCCCNC(=O)CCCCCCCCC)C(=O)NCC(=O)NCC(=O)NCC(=O)N[C@@H](CS)C(=O)N[C@@H](CCCNC(=N)N)C(=O)N[C@@H](CCCCN)C(=O)N1CCC[C@H]1C(=O)N[C@@H](CS)C(=O)N[C@@H](CCCNC(=N)N)C(=O)N[C@@H](CCCCN)C(=O)N1CCC[C@H]1C(N)=O — MIC (Candida albicans; broth microdilution; 58288, RPMI-1640; 48 h, 30 °C): 64 µM
Cc1c(CN(C)C(=O)/C=C/c2cnc3c(c2)CC(N)C(=O)N3)oc2ccccc12 (stereo not drawn) — MIC (Escherichia coli; MG1655 FabI A116V resistant): 64 µg/mL
[O-][N+]1=C(Cc2ccccc2)C2=NCCCN2c2ccccc21 — MIC (Fusobacterium nucleatum): 0.5 to 4 µg/mL
CC(C)CCCCCCCCC/C=C/C(=O)N[C@@H](CC(=O)O)C(=O)N[C@H]1CNC(=O)[C@@H]2CCCN2C(=O)[C@H](C(C)C)NC(=O)[C@@H](CN)NC(=O)CNC(=O)[C@H](CC(=O)O)NC(=O)CNC(=O)[C@H](CC(=O)O)NC(=O)[C@H](CC(=O)O)NC(=O)[C@H]2CCCCN2C1=O — MIC (Staphylococcus simulans; broth microdilution; 22, Mueller-Hinton broth, Mg2+ 10 mg/L; 16 h, 30 °C, with: Ca2+ 0 mM): > 128 µg/mL
CC(=O)N[C@@H](CC(C)C)C(=O)N[C@H]1CSSC[C@@H](C(=O)N2CCC[C@H]2C(N)=O)NC(=O)[C@H]([C@@H](C)O)NC(=O)[C@H](C(C)C)NC(=O)[C@H]([C@@H](C)O)NC(=O)[C@H](CCCCN)NC(=O)[C@H](CC(C)C)NC(=O)[C@H](Cc2ccccc2)NC(=O)[C@H](Cc2ccc(O)cc2)NC(=O)[C@H](CC(C)C)NC(=O)[C@H](CCCCN)NC(=O)[C@H](Cc2ccccc2)NC(=O)[C@H](CCCNC(=N)N)NC(=O)[C@H](CCC(N)=O)NC(=O)[C@H](CC(C)C)NC(=O)[C@H](CCCCN)NC(=O)[C@@H]2CCCN2C(=O)[C@H](CCCCN)NC(=O)[C@H](C(C)C)NC(=O)[C@H](CC(N)=O)NC(=O)[C@H](Cc2ccc(O)cc2)NC(=O)[C@H]([C@@H](C)O)NC1=O — MIC (Aeromonas hydrophila; broth dilution; 24 h): 5 to 10 µM
CC1(C)S[C@@H]2[C@H](NC(=O)[C@H](NC(=O)C3=C(O)C(c4ccccc4F)NC3=O)c3ccccc3)C(=O)N2[C@H]1C(=O)O (stereo partly drawn) — MIC (Escherichia coli; broth microdilution; Keio mutant JW5086-3; 18 h, ferrienterobactin permease gene): 25 µg/mL
CCCCCCCCCCCC(=O)NCCCC[C@H](NC(=O)CCCCCCCCCCC)C(=O)N[C@@H](CCCCNC(=O)CCCCCCCCCCC)C(=O)NCC(=O)NCC(=O)NCC(=O)N[C@@H](CS)C(=O)N[C@@H](CCCNC(=N)N)C(=O)N[C@@H](CCCCN)C(=O)N1CCC[C@H]1C(=O)N[C@@H](CS)C(=O)N[C@@H](CCCNC(=N)N)C(=O)N[C@@H](CCCCN)C(=O)N1CCC[C@H]1C(N)=O — MIC (Candida albicans; broth microdilution; 56452, RPMI-1640; 48 h, 30 °C): > 128 µM
O=C1NC2(CC2)COc2ncc(F)cc2[C@H]2COCCN2c2ccn3ncc1c3n2 — organ-to-brain weight ratio (Sprague-Dawley rat, male, liver; oral, 10 mg/kg/day, 4 weeks dosing, end of recovery): 678 ± 45.8%

A few entries again:
CC[C@H](C)[C@H](NC(=O)[C@H](CCCCN)NC(=O)[C@H](CCCCN)NC(=O)[C@H](Cc1ccccc1)NC(=O)[C@H](Cc1ccccc1)NC(=O)[C@H](CCCCN)NC(=O)[C@H](CCCCN)NC(=O)[C@H](Cc1ccccc1)NC(=O)[C@H](CCCNC(=N)N)NC(=O)[C@@H](N)CCCCN)C(=O)N[C@@H](CCCCN)C(=O)N[C@@H](CCCCN)C(=O)N[C@@H](CO)C(=O)N[C@H](C(=O)N[C@@H](CCCCN)C(=O)N[C@@H](CCCCN)C(=O)N[C@@H](CCCNC(=N)N)C(=O)N[C@H](C(=O)N[C@@H](CCCCN)C(=O)N[C@@H](CCCCN)C(=O)N[C@@H](CC(C)C)C(=O)N[C@@H](Cc1ccccc1)C(=O)N[C@@H](CCCCN)C(=O)N[C@@H](CCCCN)C(=O)N1CCC[C@H]1C(=O)N[C@@H](CCCNC(=N)N)C(=O)N[C@H](C(=O)N[C@H](C(=O)N1CCC[C@H]1C(=O)N[C@H](C(=O)N[C@@H](CO)C(=O)N[C@H](C(=O)N1CCC[C@H]1C(=O)N[C@@H](Cc1ccccc1)C(=O)O)[C@@H](C)CC)[C@@H](C)CC)[C@@H](C)CC)C(C)C)C(C)C)C(C)C — MIC (Escherichia coli; broth microdilution; ATCC 25922; 20 h): 4 µg/mL
CCCCCCCC(=O)NCCCC[C@H](NC(=O)CCCCCCC)C(=O)N[C@@H](CCCCNC(=O)CCCCCCC)C(=O)NCC(=O)NCC(=O)NCC(=O)N[C@@H](CS)C(=O)N[C@@H](CCCNC(=N)N)C(=O)N[C@@H](CCCCN)C(=O)N1CCC[C@H]1C(N)=O — MIC (Candida albicans; broth microdilution; fluconazole-resistant 56214, RPMI-1640; 48 h, 30 °C): > 128 µM
C[N+]1=C2C(c3ccc(Cl)cc3)=[N+]([O-])c3ccccc3N2CCC1 — MIC (Fusobacterium nucleatum): 4 to 16 µg/mL
